# Experimental data pooled from the literature.
# Compare with care: the assays were run in different laboratories. ± gives the spread as reported.
SMILES,assay,test system,conditions,how to read,endpoint,value
COC(=O)C[C@](O)(CCCC(C)(C)OC(C)=O)C(=O)O[C@@H]1C(OC)=C[C@]23CCCN2CCc2cc4c(cc2[C@H]13)OCO4,,"CD1 mouse, large intestine","oral, 1 mg/kg, 24 h, below quantification limit 1.00 ng/mL",,tissue concentration,not detected
CC(C)C[C@@H](N)C(=O)NCC(=O)N[C@H](C)C(=O)N[C@H](CO)C(=O)N[C@H](Cc1c[nH]c2ccccc12)C(=O)N[C@H](Cc1c[nH]cn1)C(=O)N[C@H](CCCNC(=N)N)C(=O)N1CCC[C@@H]1C(=O)N[C@H](CC(=O)O)C(=O)N[C@H](CCCCN)C(=O)N[C@H](CS)C(=O)N[C@H](CS)C(=O)N[C@H](CC(C)C)C(=O)NCC(=O)N[C@H](Cc1ccc(O)cc1)C(=O)N[C@H](CCC(N)=O)C(=O)N[C@H](CCCCN)C(=O)N[C@H](CCCNC(=N)N)C(=O)N1CCC[C@@H]1C(=O)N[C@H](CC(C)C)C(=O)N1CCC[C@@H]1C(N)=O,LC-MS/MS,rat plasma,"500 ng/mL, 12 h, 25 °C, room temperature before extraction",,measured concentration,507 ± 17 ng/mL
CC(C)[C@H](N)C(=O)N[C@@H](CC(N)=O)C(=O)N1CCC[C@H]1C(=O)N[C@@H](CCC(=O)O)C(=O)O,,"C57BL/6 mice, serum","oral, 10 or 50 mg/kg/day, 2 weeks",baseline: control group,serum triglycerides and urea nitrogen,decreased
CC(C)C[C@H](NC(=O)[C@H](Cc1ccc(O)cc1)NC(=O)[C@H](Cc1c[nH]cn1)NC(=O)[C@H](CC(=O)O)NC(=O)[C@@H](NC(=O)[C@H](C)NC(=O)[C@H](CC(C)C)NC(=O)CNC(=O)CNC(=O)[C@@H](NC(=O)[C@@H](NC(=O)[C@H](CCCCN)NC(=O)CNC(=O)[C@@H](NC(=O)[C@H](CCCCN)NC(=O)[C@H](CCCCN)NC(=O)[C@H](C)NC(=O)[C@H](CCCNC(=N)N)NC(=O)[C@H](CC(N)=O)NC(=O)[C@H](Cc1ccccc1)NC(=O)[C@H](Cc1c[nH]c2ccccc12)NC(=O)[C@H](CCCCN)NC(=O)[C@H](CCCCN)NC(=O)[C@H](Cc1c[nH]c2ccccc12)NC(=O)CN)C(C)C)[C@@H](C)O)C(C)C)C(C)C)C(N)=O,,zebrafish embryos,"1 h, 4, 28, 52 hpf",,acute toxic concentration,25 µg/mL
CCCCCCCC(=O)SCC/C=C/[C@@H]1CC(=O)NCc2nc(cs2)C2=N[C@@](C)(CS2)C(=O)N[C@@H](C(C)C)C(=O)N1,,female NIH Swiss mice,"intravenous bolus, 5 mg/kg, two-compartment model",,elimination half-life,139 min
CN(C)C(CNC(=O)Nc1cc(C(F)(F)F)ccc1N1CCOCC1)c1ccncc1 (stereo not shown),,"mouse, serum","intraperitoneal, 120 mg/kg single dose",,serum albumin,2.7 g/dL
CC(C)[C@H]1NC(=O)C[C@H]2/C=C/CCSSC[C@@H](NC1=O)C(=O)N[C@H](Cc1cccc3ccccc13)C(=O)NCC(=O)O2,,"nude mouse, blood","oral, 12 mg/kg",,half-life,24 min
CC[C@H](C)[C@H](NC(=O)[C@H](CCC(=O)O)NC(=O)[C@H](CCC(=O)O)NC(=O)[C@H](Cc1ccccc1)NC(=O)[C@H](CC(=O)O)NC(=O)CNC(=O)[C@H](CC(N)=O)NC(=O)CNC(=O)CNC(=O)CNC(=O)CNC(=O)[C@@H]1CCCN1C(=O)[C@H](CCCNC(=N)N)NC(=O)[C@@H]1CCCN1C(=O)[C@H](N)Cc1ccccc1)C(=O)N1CCC[C@H]1C(=O)N[C@@H](CCC(=O)O)C(=O)N[C@@H](CCC(=O)O)C(=O)N[C@@H](Cc1ccc(O)cc1)C(=O)N[C@@H](CC(C)C)C(=O)O,,"male human, plasma","intravenous, 0.5 mg/kg, single dose, healthy volunteers",,MRT,24 min
N=C(N)NCCC[C@@H]1NC(=O)[C@H](CCCNC(=N)N)NC(=O)[C@H](CCCNC(=N)N)NC(=O)[C@H](CCCNC(=N)N)NC(=O)[C@H](Cc2c[nH]c3ccccc23)NC(=O)[C@H](CCCNC(=N)N)NC(=O)[C@H](CCCNC(=N)N)NC(=O)[C@@H](N)CCCn2cc(nn2)C[C@@H](C(N)=O)NC1=O,,zebrafish embryos,"25 µg/mL, 72 h",,hatching rate,8%
CC[C@H](C)C(=O)N1CCC(NC(=O)Nc2ccc(OC(F)(F)F)c(F)c2)CC1,,healthy volunteers,"oral, 8 mg single dose",,subjects with headache TEAE,0%
C[C@H]1N=C(c2ccccc2F)c2cc(Br)ccc2-n2cnc(C(=O)OC3O[C@H](C(=O)O)[C@@H](O)[C@H](O)[C@H]3O)c21 (stereo partly shown),LC-MS/MS,"Swiss Webster mouse, female, urine","intravenous, 250 µg parent drug, 0 to 24 h",,cumulative excretion,2.5 ± 0.5%
COc1cc(NC(=O)C(=O)c2c(C)n(Cc3ccc(Cl)cc3)c3ccc(C)cc23)ccn1,,"cynomolgus monkey, plasma","intravenous, 1 mg/kg",,AUC,1.9 µg·h/mL
CCCC[C@H]1C(=O)N(C)[C@@H](CCCC)C(=O)N[C@@H](CCCNC(=O)CN2CCN(CC(=O)O)CCN(CC(=O)O)CCN(CC(=O)O)CC2)C(=O)N[C@H](C(=O)NCC(N)=O)CSCC(=O)N[C@@H](Cc2ccc(O)cc2)C(=O)N(C)[C@@H](C)C(=O)N[C@@H](CC(N)=O)C(=O)N2CCC[C@H]2C(=O)N[C@@H](Cc2c[nH]cn2)C(=O)N[C@@H](CC(C)C)C(=O)N(C)CC(=O)N[C@@H](Cc2c[nH]c3ccccc23)C(=O)N[C@@H](CO)C(=O)N[C@@H](Cc2c[nH]c3ccccc23)C(=O)N1C [gallium-68 labelled],static PET,"NOD/SCID mice, CHO-hPD-L1 xenograft, CHO-hPD-L1 tumour","intravenous, 1 h post injection, after five PBS treatments",,tumour to muscle ratio,6.83 ± 1.89
CC[C@H](C)[C@H](N)C(=O)N[C@H](C(=O)N[C@@H](CCCCN)C(=O)N[C@H](C(=O)N[C@H](C(=O)NCC(=O)N[C@@H](CC(=O)O)C(=O)N[C@@H](CC(C)C)C(=O)N[C@H](C(=O)N[C@@H](CCCCN)C(=O)N[C@@H](Cc1c[nH]c2ccccc12)C(=O)N[C@H](C(=O)N[C@H](C(=O)N[C@@H](CC(=O)O)C(=O)N[C@H](C(=O)N[C@H](C(=O)N[C@@H](CC(N)=O)C(=O)N[C@@H](CO)C(=O)N[C@@H](Cc1ccccc1)C(=O)N[C@H](C(=O)N[C@@H](CCCCN)C(=O)N[C@@H](CCCCN)C(=O)O)[C@@H](C)O)C(C)C)[C@@H](C)O)[C@@H](C)CC)[C@@H](C)CC)C(C)C)[C@@H](C)CC)[C@@H](C)O)[C@@H](C)CC,circular dichroism,POPC vesicles,pH 7.5,,fractional helicity,0.92
COC(=O)C=CCCC(NC(=O)c1ccncc1C(=O)O)C(=O)NC(C(=O)N1CC(=O)CC1C(=O)NC(C(=O)NC(C(N)=O)C1CCCCC1)C1CCCCC1)C(C)(C)C (stereo not shown),,"New Zealand White rabbits, venous stasis, jugular vein","intravenous bolus plus infusion, dose not given, time not given",baseline: baseline,blood flow recovery,22%
CC(C)[C@@H]1NC(=O)[C@H](Cc2ccccc2)NC(=O)[C@H](Cc2ccc(O)cc2)NC(=O)CCSSC[C@@H](C(=O)N2CCC[C@H]2C(=O)N[C@H](CCCNC(=N)N)C(=O)NCC(N)=O)NC(=O)[C@H](CCC(N)=O)NC1=O,,"Wistar rat, blood","intravenous, 1 µg/kg single dose, 72 h",,haematocrit,40 ± 1.6%
CC(C)[C@H](NC(=O)CNC(=O)[C@H](CCC(N)=O)NC(=O)[C@H](C)N)C(=O)O,,human,"intravenous infusion, 15 mg/kg/h, 2 h infusion",,subjects with severe adverse events,0%
CCCCCCCCCCCCC(=O)O.O=C1CCCC2C3CCCN4CCCC(CN12)C34 (stereo not shown),,water,"concentration not given, 308.15 K",,limiting apparent molar volume,431.95 ± 0.2 cm³/mol
CC[C@H](C)[C@@H]1NC(=O)[C@H](Cc2ccc(O)cc2)NC(=O)[C@@H](N)CSSC[C@@H](C(=O)NCC(=O)N[C@@H](CCCCNC(=O)COCCOCCNC(=O)COCCOCCNC(=O)CC[C@H](NC(=O)CC[C@H](NC(=O)CCCCCCCCCCCCCCCCC(=O)O)C(=O)O)C(=O)O)C(=O)NCC(N)=O)NC(=O)[C@H](CC(N)=O)NC(=O)[C@H](CCC(N)=O)NC1=O,mass spectrometry,C57BL/6 mice,"intraperitoneal, 1 mg/kg, 24 h",,plasma level relative to Cmax,> 50%
CCCCCCCCCCCCCCCC(=O)N=C(N)NCCC[C@H](NC(=O)[C@H](CC(C)C)NC(=O)[C@@H](CC(C)C)NC(=O)[C@H](Cc1ccc(O)cc1)NC(=O)[C@H](CO)NC(=O)[C@H](Cc1c[nH]c2ccccc12)NC(=O)[C@H](Cc1c[nH]cn1)NC(=O)[C@@H]1CCC(=O)N1)C(=O)N1CCC[C@H]1C(=O)NCC,,human plasma,"21 days, pH 7.4, 37 °C",,conversion to leucine,92.4 ± 6.47%
O=C(CN1CCN(c2cc3c(cc2F)c(=O)c(C(=O)O)cn3C2CC2)CC1)Nc1ccc(Cl)cc1,,BALB/c mice female,"intravenous, 3.75 mg/kg",,Vss,2.33 mL
O=c1cc(-c2ccccc2)oc2c(Br)c(O)c(O)c(O)c12,,"C57BL/6 mouse, plasma","po, 50 mg/kg",,Vz,7100 ± 3030 mL

# A few entries again:
SMILES,assay,test system,conditions,how to read,endpoint,value
CN(C)C(CNC(=O)Nc1cc(C(F)(F)F)ccc1N1CCOCC1)c1ccncc1 (stereo not shown),,"mouse, serum","intraperitoneal, 120 mg/kg single dose",,serum albumin,2.7 g/dL
COC(=O)C=CCCC(NC(=O)c1ccncc1C(=O)O)C(=O)NC(C(=O)N1CC(=O)CC1C(=O)NC(C(=O)NC(C(N)=O)C1CCCCC1)C1CCCCC1)C(C)(C)C (stereo not shown),,"New Zealand White rabbits, venous stasis, jugular vein","intravenous bolus plus infusion, dose not given, time not given",baseline: baseline,blood flow recovery,22%
CC[C@H](C)[C@@H]1NC(=O)[C@H](Cc2ccc(O)cc2)NC(=O)[C@@H](N)CSSC[C@@H](C(=O)NCC(=O)N[C@@H](CCCCNC(=O)COCCOCCNC(=O)COCCOCCNC(=O)CC[C@H](NC(=O)CC[C@H](NC(=O)CCCCCCCCCCCCCCCCC(=O)O)C(=O)O)C(=O)O)C(=O)NCC(N)=O)NC(=O)[C@H](CC(N)=O)NC(=O)[C@H](CCC(N)=O)NC1=O,mass spectrometry,C57BL/6 mice,"intraperitoneal, 1 mg/kg, 24 h",,plasma level relative to Cmax,> 50%
